Assay results gathered from unrelated publications.
Parts stem from different laboratories: compare values within a part only. Changes are numbered by the printed parent chain.

Set 1
Target: PABPC1L2, full length, GST fusion (mouse, UniProt A0ABA7IW68)
Method: RNAcompete
Form: RNA
Medium: in vitro
Tested at: 20 nM
Setting: 7-mer, probes averaged, single round
Relative to: mean of 7-mers
Reading: higher = stronger binding
Residues (chain): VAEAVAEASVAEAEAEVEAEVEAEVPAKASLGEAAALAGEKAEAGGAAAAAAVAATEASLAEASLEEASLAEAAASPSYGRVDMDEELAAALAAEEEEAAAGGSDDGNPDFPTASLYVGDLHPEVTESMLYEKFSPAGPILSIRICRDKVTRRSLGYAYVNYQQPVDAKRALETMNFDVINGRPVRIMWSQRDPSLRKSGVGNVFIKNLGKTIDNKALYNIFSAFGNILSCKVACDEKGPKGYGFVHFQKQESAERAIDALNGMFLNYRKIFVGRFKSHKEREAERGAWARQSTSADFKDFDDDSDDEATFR
Sequence | 7-mer Z-score
GAAAGUC | 0.162
CCGGCCC | -0.467
GUGUGCG | -0.0935
UGGGACA | 0.254
CCCUAAG | -0.296
AAUCGCG | 0.0877
AAUCCAG | -0.0591
AACGUGU | 0.0315
AAUGAGG | 0.508
CUGACAU | -0.179
CCAACCU | -0.253
GUAGGAA | 0.298
CGGUUUG | -0.476
CAAGAAU | 0.0587
UAAGACC | 0.00798
GCAUACC | -0.38
UUAGCAA | 0.0859
GAACAAA | 1.62
UACUCGA | -0.213
GAAUCAA | 0.191
AACGAGC | 0.287
CCGAAAG | -0.112
UCUUAAU | -0.269

Set 2
Target: RING finger protein unkempt homolog, zinc fingers 1-6, GST-SBP tag (UNK, Homo sapiens, UniProt Q9C0B0, residues 30-357)
Method: RNA Bind-n-Seq
Form: RNA
Medium: in vitro
Tested at: not given
Setting: RNA with constant flanks, ends assumed
Relative to: input RNA pool
Reading: higher = stronger binding
Constant ends, left off below: GGGAGUUCUACAGUCCGACGAUC … CAACAGAGGAUUGAGCAUCA
Target sequence (chain): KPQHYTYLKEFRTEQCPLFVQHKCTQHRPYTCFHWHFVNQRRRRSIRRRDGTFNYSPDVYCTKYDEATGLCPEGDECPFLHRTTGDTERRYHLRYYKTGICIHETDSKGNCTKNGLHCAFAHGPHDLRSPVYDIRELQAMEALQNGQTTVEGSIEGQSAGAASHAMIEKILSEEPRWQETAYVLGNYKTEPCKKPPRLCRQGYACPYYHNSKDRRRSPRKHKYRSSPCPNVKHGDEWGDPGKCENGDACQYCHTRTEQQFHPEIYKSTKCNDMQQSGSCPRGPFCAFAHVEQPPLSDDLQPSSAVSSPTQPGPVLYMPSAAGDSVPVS
Sequence | bound/input enrichment [ratio]
CAGUCACCGCUUUCUUCUCUAAAACAACUUCUUUUUUUUUUUUAACACAUCUUUUCCAUGCCGCAACCAAAGCCAGAGCCAUGUUCUAACCCUAUGCCCUUCUCAAGCCUGGCUGCUCAC | 1.5
GAAGCAGCAGCACUGCUAGAAAGUGGCAGUUCAGUGGGAGACGAGACCGAUCUUGCUAAUUCCGGUGAUGUGGCUUCUGAUGGGAAAAAGGAACCAUCAGAUAAAGCUGUGAAAAAAGAU | 0.16
CCUGGCAACCGAGCCCCCGAUCCCACAGAGAGUCGAAGUCUUCAUAUUCAGCACCCAGGGUACCGACCGGUAGCCCUGCUGCCCUCCACGUGCAACACAUCAUACAUCACCCUCCUAGGU | 0.244
GCAUAUUAUAUCAGACUGCUUUGAGAAAUCUCAUCCCUAGUCUAUUGCAGUUGUUUCUAUCCGCUUACUGAUUAACUCAGUCCUGACACACCUUUUGGGAAAUGCUGAUUUAAACUUCUU | 0.889
CAACAGCAGCGAUUACUAGACAUUGCCAAGAAGGAAAAUGUCAAAAUUAGUGAUGAGGGAACCGCUUAUCUUGUUAAAGUGUCAGAAGGAGACUUAAGAAAAGCCAUUACAUUUCUUCAA | 0.302
AAUUCACAGGAAGUGAGAUUCGUGUGAGGGAUGACAAGAUGCCUUUGGCGCACCUUGCAACCGCUGUUGAAGCUGUUGGUUGGGCACAUCCAGAUACAAUCUGUCUCAUGGUUGCAAACA | 0.132
UCAAGGGCACGAGCAUCGGCCAUGCCUUUCUUGGACAUCCAGAAAAGGUUCGGCCUUAACACCGAUCGAUGGUUGACAAUCCAGAGUGGUGAACAGCCCUACAAGAUGGCUGGUCGAUGC | 0.102
GUGGCCUUUCAGUUCACGGUCACUCCGGACGGGAUUGACCUGCGGCUGAGCCAUGAAGCUCUCCGACAAAUCUAUCUCUCUGGACUUCAUUCCUGGAAAAAGAAGUUCAUCAGAUUCAAG | 0.0775
GCUACCUCUGUUGCUGCCCGAGGUCUAGAUGUGAAACAUCUGAUUCUUGUAGUAAAUUACCGCUGCCCCAACCAUUAUGAGGAUUAUGUACACAGAGCAGGGCGGACUGGAAGAGCAGGA | 0.558
GUAAAGAGUUAAAGACUAUGUGAAGGAUUGUAUAUUUAAGUUAUUGAAAUUCUGAAACUGCCGUAAUCUAAAAUGUGUGAGUUGUGGGCUGCAGAGAAGACUCAGCCAGUAAAGGCACCU | 0.538
GAGUGGCCCCUGCUAGAUUCUUCCCAGAGAAAACUGUACAAAGAUGUAAUGCUGGAGAAUUACCGCAAUCUAAGUUCACUGGGUUAUCAGGUUGGCAAACCCCGCCUCAUCUCACACCUA | 0.21

Set 3
Target: ABI1, truncated, D143A, DHFR fusion (Arabidopsis thaliana)
Method: DHFR PCA, deep sequencing
Medium: yeast
Setting: methotrexate growth selection, single substitutions
With: (+)-ABA 17 µM
Relative to: wild-type fitted maximum
Reading: higher = stronger binding
Starting sequence: PYL1, truncated, DHFR fusion (Arabidopsis thaliana); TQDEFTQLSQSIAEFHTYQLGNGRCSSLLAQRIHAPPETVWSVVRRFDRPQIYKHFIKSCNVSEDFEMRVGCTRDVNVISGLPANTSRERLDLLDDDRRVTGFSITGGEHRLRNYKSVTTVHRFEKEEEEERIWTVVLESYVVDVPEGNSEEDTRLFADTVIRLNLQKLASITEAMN
Substitution | relative binding score
T101H | 18.3%
H55Q | 103%
E147V | 78.1%
D92A | 3.11%
V142T | 80.1%
L156T | 89.6%
E130V | 83.8%
R163P | -14.7%
F47Y | 8.57%
K58N | 65.5%
S117K | -0.707%
R90V | 71.4%
L94F | 87.4%
R99Q | 81.8%
F56Y | 53.7%
L94P | -4.36%
Q7N | 78.8%
A35W | -16.9%
E174R | 45.6%

Set 4
Target: Interferon regulatory factor 5, full length, phosphomimetic (IRF5, Homo sapiens, UniProt Q13568-2, residues 1-514, S451D/S453D/S456D/S462D)
Method: protein-binding microarray
Form: double-stranded DNA, one strand shown
Medium: in vitro
Tested at: 940 nM top
Setting: 60-bp whole probe
With: salmon DNA 0.4 mg/ml
Relative to: random background probes
Reading: higher = stronger binding
Constant ends, left off below: GCCTAGCAC … GTCTTGATTCGCTTGACGCTGCTG
Sequence | fitted relative affinity [z-score]
TTAAATTTCGGGTTTCGATTAGTGCTA | 6.01
GACGGTTTCGGTTCGGGGACGTGCTAG | 12.6
TCAGTTCTGAGTCTTCCACTGTGCTAG | 0.00153
GACGATTTCGGGATTGGAGACGTGCTA | 0.264
TTAGGACAGGGGTTTCGGTTAGTGCTA | 5.67
TTAGATATCAGTTTCGATTTGTGCTAG | 7.88
GACGATATCTGTTTCGAGACGTGCTAG | 1.39
TTAGGACTTGGACTGGGTTAGTGCTAG | -0.334
GACGATCTCAGTTTCGAGAGGTGCTAG | 3.43
TTAGGACTGGGACTAGGTTAGTGCTAG | -0.388
TTAGAACTGAGACTAGATTAGTGCTAG | -0.396
TTAGAACTGAGACTGTATTAGTGCTAG | -0.134
TCACCTTGGAAGTATGACACTGTGCTA | 0.0379
ATTTTTTTTAGTGGATGAAAGTGCTAG | 0.523
TTAGGTTTGCTTATCCTTTAGTGCTAG | -0.0976
TTAGGTTTCGACTATCCGTTAGTGCTA | 9.85
GACGATTTCGGTTTTCGAGACGTGCTA | 2.13
TCAGTAATGCTTCTGTAACTGTGCTAG | 0.221
CCAGGAAAAGGGATTCAGTTGTGCTAG | 0.119
TCAGATATTAAACTGATACTGTGCTAG | -0.257
GAGGATTTCGGGTATCGAGACGTGCTA | 1.1
GGCTCTCAGTGGGCTGCTGGGTGCTAG | 0.766
CACTGCATCTGATTTCTCAAAGTGCTA | 0.574
TTAGGTCTTCTTTTCCTTTAGTGCTAG | 1.05
TTAGACATCAGTCTCGATTAGTGCTAG | 2.61

Set 5
Target: CCND2, cyclin fold, Cln2 fusion (human)
Method: yeast growth competition, sequencing
Medium: yeast
Setting: weak parent motif
Relative to: not given
Reading: higher = stronger binding
Starting sequence: E2F1 docking peptide (human); PPVKRRLDLETDH; partner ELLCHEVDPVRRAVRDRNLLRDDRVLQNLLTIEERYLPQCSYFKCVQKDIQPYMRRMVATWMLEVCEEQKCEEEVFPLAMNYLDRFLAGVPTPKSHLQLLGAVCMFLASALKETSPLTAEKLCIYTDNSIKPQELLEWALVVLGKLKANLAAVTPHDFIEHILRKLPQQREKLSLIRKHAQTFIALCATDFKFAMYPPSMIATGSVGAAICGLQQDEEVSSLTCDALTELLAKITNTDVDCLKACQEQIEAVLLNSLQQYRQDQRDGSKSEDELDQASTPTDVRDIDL
Substitution | normalised enrichment score
H13C | 0.0942
D12I | -0.376
R5L | 0.00678
H13W | 0.385
R5T | 0.0363
L7H | -0.138
D12S | 0.342
R5D | 0.485
T11P | 0.323
L7N | 0.0685
K4V | 0.331
P2M | -0.0653
K4I | 0.223
E10K | -0.361
L7I | 0.424
P2A | 0.211
H13R | 0.0509
L7G | 0.032
D8L | 0.493
P2R | 0.119
K4L | 0.154
D8W | 0.19
E10Q | 0.341
V3G | -0.263
D8Y | -0.0182

Other studies, line by line
Substance | target | assay | test system | setting | scale | endpoint | value
PhoQ, residues 284 288 289 292 302 303 TTCLQL | PhoP, residues 12 14 15 18 19 AQCLL (Escherichia coli, UniProt P23836) | Sort-seq, measured: YFP reporter | E. coli | PhoQ-PhoP variant library, with: 10 µM Mg2+ | relative to: high Mg2+ state, higher = stronger signaling | fold induction | 2.29

Excerpt of the above (set 1):
Sequence | 7-mer Z-score
GUGUGCG | -0.0935
CUGACAU | -0.179
CCAACCU | -0.253
UUAGCAA | 0.0859
UACUCGA | -0.213
GAACAAA | 1.62
CGGUUUG | -0.476
UAAGACC | 0.00798
AAUGAGG | 0.508
UCUUAAU | -0.269
AACGAGC | 0.287
CCCUAAG | -0.296
